Earlier results as cited in several papers.
Each numbered part shows a few of the values that one paper quotes. Numbers after ± are the reported error.

Study 1
Substance: buforin II
Escherichia coli; ATCC 25922; literature value — MIC: 12.5 µM.
It gave over 100 µM for MIC (Klebsiella pneumoniae; ATCC 700603; literature value).
Enterobacter sp.; KCTC 2625 — MIC: 50 µM.
It gave 50 µM for MIC (Acinetobacter baumannii; ATCC 19606; literature value).
Enterococcus faecalis; KCTC 3511; literature value — MIC: 50 µM.

Other studies, line by line
F2: Prothrombin (F2, Bos taurus, UniProt P00735)
B1: CX3CL1, human; sequence looked up; chain QHHGVTKCNITCSKMTSKIPVALLIHYQQNQASCGKRAIILETRQHRLFCADPKEQWVKDAMQHLDRQAAALTRNGGTFEKQIGEVKPRTTPAAGGMDESVVLEPEATGESSSLEPTPSSQEAQRALGTSPELPTGVTGSSGTRLPPTPKAQDGGPVGTELFRVPPVSTAATWQSSAPHQPGPSLWAEAKTSEAPSTQDPSTQASTASSPAPEENAPSEGQRVWGQGQSPRPENSLEREEMGPVPAHTDAFQDWGPGSMAHVSVVPVSSEGTPSREPVASGSWTPKAEEPIHATMDPQRLGVLITPVPDAQAATRRQAVGLLAFLGLLFCLGVAMFTYQSLQGCPRKMAGEMAEGLRYIPRSCGSNSYVLVPV
B2: CCL4; sequence looked up; chain APMGSDPPTACCFSYTARKLPRNFVVDYYETSSLCSQPAVVFQTKRSKQVCADPSESWVQEYVYDLELN
With `CCL3` the Kd was 1.2 nM (US28 E13A; binding, radioligand competition).
For `TFELQGVVPRGVNL (V29F)`, the Km was 195 ± 34 µM (F2; substrate, HPLC; peptide).
The Kd of `B1 (CX3CL1, human)` is reported as 0.5 nM (US28 F14A; binding, radioligand competition).
`ecgonine` gave a Kd of 10000 to 100000 nM (monoclonal antibody; binding; room temperature).
`DFLAEGGGVRGPRV` has a kcat of 39.3 ± 2.6 s⁻¹ (F2; substrate, HPLC; peptide).
`B2 (CCL4)` gave a Kd of 2.2 nM (US28 E13A; binding, radioligand competition).
For `TVELQGVVPRGVNL`, the kcat was 6.4 ± 0.03 s⁻¹ (F2; substrate, HPLC; peptide).
With `CCL5` the Kd was 1.7 nM (US28 E13A; binding, radioligand competition).

For quick reference, copied from above (study 1):
Escherichia coli; ATCC 25922; literature value — MIC: 12.5 µM.
